Measured values pooled from the literature.
Each line is one published result; not all experiments were run side by side.

SMILES | test | test system | conditions | endpoint | value
Cc1cc(Nc2ccc(S(F)(F)(F)(F)F)cc2)n2nc(C(C)(F)F)nc2n1 | – | Plasmodium falciparum malaria patients | oral, 250 mg | adverse event Asthenia | 0%
FC(F)(F)c1ccc(CNc2ccc(Cc3c[nH]c4ncc(Cl)cc34)cn2)cn1 | refers to: Diarrhoea | patients with advanced solid tumours | oral, dose not given, all grades, possibly related to drug | adverse event incidence | 30%
O=C1CCc2ccc(OCCCCN3CCN(c4cccc(Cl)c4Cl)CC3)cc2N1 | refers to: Hypotension | genotyped patients, CYP2D6 ultrarapid metabolizers | dose not given, long-acting oral or depot | adverse event incidence | 11%
NCCONC(=O)[C@@H]1CC[C@@H]2CN1C(=O)N2OS(=O)(=O)O | refers to: urinary occult blood positive | healthy Chinese men | intravenous, 2 g, treatment-emergent | adverse event incidence | 0%
Cc1c(Cl)c(C)[n+]([O-])c(Cl)c1-c1noc(-c2cc(O)c(O)c([N+](=O)[O-])c2)n1 | refers to: Presyncope | healthy Caucasian subjects | oral, 25 mg, 4 days | adverse drug reaction incidence | 0%
Cc1ccc(Sc2ccccc2N2CCNCC2)c(C)c1 | TEAE Acne | elderly women | oral, 10 mg single dose | adverse event incidence | 0%
CC(=O)O[C@H]1C(=O)[C@@]2(C)[C@H]([C@H](OC(=O)c3ccccc3)[C@]3(O)C[C@H](OC(=O)[C@H](O)[C@@H](NC(=O)c4ccccc4)c4ccccc4)C(C)=C1C3(C)C)[C@]1(OC(C)=O)CO[C@@H]1C[C@@H]2O | refers to: Fatigue | patients with advanced solid tumours | intravenous, dose not given, all grades, possibly related to drug | adverse event incidence | 59%
Cc1c(C(=O)O)ccc2c3n(nc12)[C@@H]1[C@H](C3)N(CC2CC2)[C@@]2(C(=O)Nc3cc(Cl)ccc32)[C@H]1c1cccc(Cl)c1F | phase Ia trial, refers to: Thrombocytopenia | cancer patients | oral, dose not given, all patients all grades | adverse event incidence | 44.4%

For quick reference, copied from above:
SMILES | test | test system | conditions | endpoint | value
O=C1CCc2ccc(OCCCCN3CCN(c4cccc(Cl)c4Cl)CC3)cc2N1 | refers to: Hypotension | genotyped patients, CYP2D6 ultrarapid metabolizers | dose not given, long-acting oral or depot | adverse event incidence | 11%
